Measured values of several laboratories.
Several values in a cell are separate wells, animals, samples, runs or records. ± marks the error that the study gave.
ache: Acetylcholinesterase (ache, Electrophorus electricus, UniProt O42275)
UniProt Q00987, sequence (whole entry, looked up): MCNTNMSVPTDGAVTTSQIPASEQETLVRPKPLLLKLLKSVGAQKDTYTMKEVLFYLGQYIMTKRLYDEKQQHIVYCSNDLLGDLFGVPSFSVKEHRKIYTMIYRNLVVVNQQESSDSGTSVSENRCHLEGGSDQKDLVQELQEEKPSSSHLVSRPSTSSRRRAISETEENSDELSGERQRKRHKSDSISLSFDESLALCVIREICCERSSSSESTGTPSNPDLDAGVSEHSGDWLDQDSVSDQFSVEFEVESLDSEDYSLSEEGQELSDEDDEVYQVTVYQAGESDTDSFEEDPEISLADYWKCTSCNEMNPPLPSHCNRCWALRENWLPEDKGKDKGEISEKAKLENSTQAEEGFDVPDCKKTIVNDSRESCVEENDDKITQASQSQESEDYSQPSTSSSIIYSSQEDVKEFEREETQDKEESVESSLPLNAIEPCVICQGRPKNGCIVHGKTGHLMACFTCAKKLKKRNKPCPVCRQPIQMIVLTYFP
UniProt P49137, sequence (whole entry, looked up): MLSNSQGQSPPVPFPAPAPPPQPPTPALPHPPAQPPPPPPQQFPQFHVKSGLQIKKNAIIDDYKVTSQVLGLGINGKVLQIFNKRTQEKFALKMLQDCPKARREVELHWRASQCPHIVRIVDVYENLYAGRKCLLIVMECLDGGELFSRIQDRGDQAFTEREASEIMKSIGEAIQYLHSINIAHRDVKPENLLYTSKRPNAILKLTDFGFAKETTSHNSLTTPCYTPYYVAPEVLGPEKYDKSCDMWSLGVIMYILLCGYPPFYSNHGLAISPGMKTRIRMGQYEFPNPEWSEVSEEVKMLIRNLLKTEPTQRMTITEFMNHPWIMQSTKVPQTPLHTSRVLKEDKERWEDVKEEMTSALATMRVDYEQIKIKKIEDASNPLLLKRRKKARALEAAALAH
UniProt O42275, sequence (whole entry, looked up): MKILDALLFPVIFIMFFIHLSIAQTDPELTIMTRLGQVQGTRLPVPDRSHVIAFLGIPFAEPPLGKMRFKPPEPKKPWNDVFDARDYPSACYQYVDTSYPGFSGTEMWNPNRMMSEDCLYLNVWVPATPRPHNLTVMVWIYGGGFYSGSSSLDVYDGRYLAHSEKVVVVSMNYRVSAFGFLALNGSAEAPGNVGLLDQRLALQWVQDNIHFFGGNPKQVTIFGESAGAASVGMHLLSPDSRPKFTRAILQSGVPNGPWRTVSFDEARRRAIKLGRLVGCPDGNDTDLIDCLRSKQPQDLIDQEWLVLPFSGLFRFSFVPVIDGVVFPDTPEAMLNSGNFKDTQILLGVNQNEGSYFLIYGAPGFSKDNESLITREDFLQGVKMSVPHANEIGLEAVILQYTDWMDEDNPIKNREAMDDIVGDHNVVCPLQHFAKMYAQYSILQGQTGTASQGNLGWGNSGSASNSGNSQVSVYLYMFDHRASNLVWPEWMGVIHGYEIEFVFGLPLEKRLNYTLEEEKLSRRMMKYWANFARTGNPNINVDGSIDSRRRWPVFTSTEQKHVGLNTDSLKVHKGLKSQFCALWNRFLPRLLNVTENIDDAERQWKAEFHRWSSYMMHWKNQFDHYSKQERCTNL
UniProt Q9Y2J8, sequence (whole entry, looked up): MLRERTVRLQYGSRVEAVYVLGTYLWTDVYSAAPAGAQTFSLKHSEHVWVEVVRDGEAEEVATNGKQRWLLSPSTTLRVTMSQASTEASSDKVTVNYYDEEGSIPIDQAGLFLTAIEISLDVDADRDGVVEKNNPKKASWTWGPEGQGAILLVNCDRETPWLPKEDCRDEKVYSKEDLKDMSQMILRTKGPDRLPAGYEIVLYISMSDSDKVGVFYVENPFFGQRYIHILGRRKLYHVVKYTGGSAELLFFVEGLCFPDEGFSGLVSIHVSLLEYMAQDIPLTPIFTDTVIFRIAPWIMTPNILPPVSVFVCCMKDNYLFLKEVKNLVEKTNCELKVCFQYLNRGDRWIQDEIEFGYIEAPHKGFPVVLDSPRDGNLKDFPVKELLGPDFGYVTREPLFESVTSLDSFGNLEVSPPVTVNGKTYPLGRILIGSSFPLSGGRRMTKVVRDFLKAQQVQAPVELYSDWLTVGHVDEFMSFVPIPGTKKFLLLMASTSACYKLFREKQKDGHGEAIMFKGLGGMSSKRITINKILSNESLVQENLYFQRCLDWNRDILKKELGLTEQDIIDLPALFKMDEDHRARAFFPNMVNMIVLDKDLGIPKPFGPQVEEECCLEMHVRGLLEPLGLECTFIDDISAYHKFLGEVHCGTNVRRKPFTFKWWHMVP
UniProt P42765, sequence (whole entry, looked up): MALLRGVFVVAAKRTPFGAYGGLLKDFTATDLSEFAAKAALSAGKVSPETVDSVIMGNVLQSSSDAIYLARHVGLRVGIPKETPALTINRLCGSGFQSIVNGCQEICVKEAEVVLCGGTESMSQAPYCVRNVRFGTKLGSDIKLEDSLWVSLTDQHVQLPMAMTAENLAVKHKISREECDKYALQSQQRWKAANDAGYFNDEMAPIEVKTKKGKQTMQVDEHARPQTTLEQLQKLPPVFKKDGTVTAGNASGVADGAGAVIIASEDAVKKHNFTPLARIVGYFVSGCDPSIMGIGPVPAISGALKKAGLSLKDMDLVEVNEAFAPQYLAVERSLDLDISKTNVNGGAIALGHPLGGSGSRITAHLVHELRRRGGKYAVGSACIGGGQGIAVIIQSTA
UniProt P57059, sequence (whole entry, looked up): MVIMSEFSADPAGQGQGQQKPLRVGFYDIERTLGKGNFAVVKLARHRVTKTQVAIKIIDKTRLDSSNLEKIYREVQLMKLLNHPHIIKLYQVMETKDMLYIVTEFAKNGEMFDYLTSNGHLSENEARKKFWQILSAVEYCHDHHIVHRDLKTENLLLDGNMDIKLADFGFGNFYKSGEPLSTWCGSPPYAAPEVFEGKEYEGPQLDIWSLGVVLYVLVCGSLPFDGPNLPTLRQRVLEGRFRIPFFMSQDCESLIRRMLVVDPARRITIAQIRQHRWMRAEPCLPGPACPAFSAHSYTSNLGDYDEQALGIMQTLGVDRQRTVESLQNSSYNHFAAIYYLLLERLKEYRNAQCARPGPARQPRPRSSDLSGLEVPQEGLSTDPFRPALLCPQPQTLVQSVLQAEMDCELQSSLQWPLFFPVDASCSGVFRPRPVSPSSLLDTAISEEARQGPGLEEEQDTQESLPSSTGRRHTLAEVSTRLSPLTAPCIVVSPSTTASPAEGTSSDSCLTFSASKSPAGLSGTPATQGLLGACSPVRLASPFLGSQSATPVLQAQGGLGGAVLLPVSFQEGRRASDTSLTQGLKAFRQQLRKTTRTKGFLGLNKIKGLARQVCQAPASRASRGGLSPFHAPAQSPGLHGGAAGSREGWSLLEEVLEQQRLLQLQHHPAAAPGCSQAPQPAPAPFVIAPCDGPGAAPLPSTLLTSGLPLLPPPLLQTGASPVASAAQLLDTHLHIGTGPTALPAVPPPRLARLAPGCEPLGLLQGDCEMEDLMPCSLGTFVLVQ
UniProt P78356, sequence (whole entry, looked up): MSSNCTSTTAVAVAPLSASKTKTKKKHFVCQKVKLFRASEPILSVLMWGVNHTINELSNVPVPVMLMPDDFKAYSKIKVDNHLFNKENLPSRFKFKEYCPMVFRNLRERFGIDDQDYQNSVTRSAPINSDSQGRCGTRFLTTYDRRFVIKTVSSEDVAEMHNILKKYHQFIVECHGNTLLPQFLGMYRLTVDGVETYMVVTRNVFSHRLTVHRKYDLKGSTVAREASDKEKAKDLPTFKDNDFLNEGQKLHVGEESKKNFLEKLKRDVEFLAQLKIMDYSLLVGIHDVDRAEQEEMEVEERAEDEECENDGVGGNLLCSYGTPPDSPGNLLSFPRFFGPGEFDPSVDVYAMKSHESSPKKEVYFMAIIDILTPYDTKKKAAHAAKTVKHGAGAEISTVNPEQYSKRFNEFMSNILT
UniProt P16233, sequence (whole entry, looked up): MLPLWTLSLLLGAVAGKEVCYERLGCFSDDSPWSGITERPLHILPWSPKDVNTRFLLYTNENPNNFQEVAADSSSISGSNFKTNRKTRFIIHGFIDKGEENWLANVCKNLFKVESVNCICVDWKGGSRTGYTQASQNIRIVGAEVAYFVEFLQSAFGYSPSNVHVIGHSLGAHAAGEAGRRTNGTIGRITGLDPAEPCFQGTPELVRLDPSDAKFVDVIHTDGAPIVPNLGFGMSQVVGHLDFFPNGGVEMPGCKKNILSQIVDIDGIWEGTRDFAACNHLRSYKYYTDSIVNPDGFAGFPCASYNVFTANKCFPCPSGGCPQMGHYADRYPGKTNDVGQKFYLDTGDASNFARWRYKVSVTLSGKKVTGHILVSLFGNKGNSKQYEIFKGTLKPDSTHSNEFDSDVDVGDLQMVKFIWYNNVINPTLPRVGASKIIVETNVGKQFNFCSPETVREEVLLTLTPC
UniProt P41145, sequence (whole entry, looked up): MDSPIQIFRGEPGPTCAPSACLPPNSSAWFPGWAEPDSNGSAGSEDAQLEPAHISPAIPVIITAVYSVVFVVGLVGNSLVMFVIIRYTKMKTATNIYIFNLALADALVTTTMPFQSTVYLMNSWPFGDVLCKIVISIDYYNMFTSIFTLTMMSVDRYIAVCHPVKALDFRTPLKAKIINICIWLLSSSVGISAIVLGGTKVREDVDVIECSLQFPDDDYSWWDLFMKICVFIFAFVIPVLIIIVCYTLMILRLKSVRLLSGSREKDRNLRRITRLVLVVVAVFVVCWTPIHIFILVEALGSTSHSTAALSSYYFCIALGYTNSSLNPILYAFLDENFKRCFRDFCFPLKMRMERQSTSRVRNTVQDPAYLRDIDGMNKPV

`N[C@H](C(=O)N1CCCC1)C1CCN(c2nccc3c(-c4ncc(Cl)cc4Cl)cccc23)CC1` has a kcat of 0.618 s⁻¹ and 0.623 s⁻¹ (Protein-arginine deiminase type-2 (PADI2, Homo sapiens, UniProt Q9Y2J8); enzyme activity; 0.03932 µM, with: Ca2+ 0.25 mM).
`CC(=O)c1cccc(/N=N/c2cccc([B-](F)(F)F)c2)c1.[K+]` has a switching factor of 1.2 ± 0.1 (Chymotrypsinogen A (Bos taurus, UniProt P00766); enzyme activity, inhibitor; with: Suc-AAPF-AMC; relative to: Ki cis over Ki trans).
`CS(C)(=O)=Nc1ccc(-c2ccc(-c3nc4cc(O[C@@H]5CO[C@H]6[C@@H]5OC[C@H]6O)[nH]c4cc3F)cc2)cc1` gave an inhibition of 23% (Proto-oncogene tyrosine-protein kinase ROS (ROS1, Homo sapiens, UniProt P08922); enzyme activity, inhibitor; 10 µM).
`C#CCCCCOc1ccc2c(c1)CCCN2C(=O)CCl` has a reactivity ratio of 0.596 (3-ketoacyl-CoA thiolase, mitochondrial (Homo sapiens, UniProt P42765); mass spectrometry profiling; H460 cell lysate; 100 µM over 10 µM, UniProt P42765; relative to: high over low concentration).
`Cc1ccc(-c2csc(NN=C(C=Cc3ccc(Cl)cc3)C(=O)O)n2)cc1` gave a selectivity index of 4.65 (ache; Ellman; relative to: IC50 BChE over IC50 AChE).
With `[CH3][Ti+2][O]C(=O)c1ccc([S][Au][PH](c2ccccc2)(c2ccccc2)c2ccccc2)cc1.c1cc[cH-]c1.c1cc[cH-]c1` the remaining activity was 39.2% and 39.4% (MAP kinase-activated protein kinase 2 (MAPKAPK2, Homo sapiens, UniProt P49137); kinase activity, HotSpot radiometric; 1 µM, with: ATP 10 µM; relative to: vehicle).
For `CN(C)[C@H]1C[C@@]23CC[C@@]4(O2)C(=CC[C@]2(C)[C@@H](c5ccc6ccncc6c5)CC[C@H]24)C=C3[C@@H](O)[C@@H]1O`, the inhibition was -10.4% (Phosphatidylinositol 5-phosphate 4-kinase type-2 beta (PIP4K2B, Homo sapiens, UniProt P78356); ATP probe labelling, inhibitor, KiNativ profiling; 1 µM).
The AlphaLISA signal of `CC[C@H](C)[C@@H]1NC(=O)[C@H](CC(C)C)NC(=O)CNC(=O)[C@H](CCCNC(=N)N)NC(=O)[C@H](Cc2c[nH]c3ccccc23)NC(=O)[C@H](CCSC)NC(=O)[C@H](CO)NC(=O)[C@H](CCC(=O)O)NC(=O)[C@H](Cc2ccccc2)NC(=O)[C@H](CC(=O)O)NC(=O)[C@H]([C@@H](C)O)NC(=O)CNC(=O)[C@H](CCC(=O)O)NC(=O)[C@H]([C@@H](C)O)NC(=O)CNC(=O)[C@H](CC(=O)O)NC1=O` is reported as 4710 a.u. and 4840 a.u. and 4780 a.u. (E3 ubiquitin-protein ligase Mdm2 (MDM2, Homo sapiens, UniProt Q00987); MDM2-ligand binding, inhibitor, AlphaLISA competition; 0.7812 µM, with: GST-tagged MDM2 ligand; lower = stronger inhibition).
For `O=C1c2ccccc2C(=O)c2c1ccc(O)c2O`, the remaining activity was 4.89% (Pancreatic triacylglycerol lipase (PNLIP, Homo sapiens, UniProt P16233); enzyme activity, inhibitor, fluorescence; 50 µM).
With `CC(C)[C@H]1NC(=O)C[C@H]2/C=C/CCSSC[C@@H](NC1=O)C(=O)N[C@H](Cc1cccc3ccccc13)C(=O)NCC(=O)O2` the inhibition was 7.2% (Proto-oncogene tyrosine-protein kinase receptor Ret (RET, Homo sapiens, UniProt P07949, G691S); enzyme activity, inhibitor; 10 µM).
Under activity, `CCCCNC(=O)c1ccc2nc(CC)c(N(C)Cc3ccc(OC)cc3)n2c1` is recorded as “active” (ache; inhibitor; 5 µM).
`O=C(Cc1ccc(Cl)c(Cl)c1)N1CCN(S(=O)(=O)C2CC2)[C@@H]2COC[C@H](N3CCCC3)[C@H]21` (single isomer, unassigned) gave an Emax of 48% (Kappa-type opioid receptor (OPRK1, Homo sapiens, UniProt P41145); β-arrestin-2 recruitment, agonist; U2OS; 1.5 h; relative to: U-69593 maximal response).
`O=C1NC(=O)c2c1c1cc(F)c[n+]3c1c1c2c2cc(O)ccc2[n]1[Ru-4]312([N]=C=S)[S+]3CC[S+]1CC[S+]2CC3` (stereo not shown) gave a remaining activity of 19% (Serine/threonine-protein kinase SIK1 (SIK1, Homo sapiens, UniProt P57059); enzyme activity; 100 nM, human enzyme, with: 10 µM ATP; relative to: untreated).

Excerpt of the above:
For `O=C1c2ccccc2C(=O)c2c1ccc(O)c2O`, the remaining activity was 4.89% (Pancreatic triacylglycerol lipase (PNLIP, Homo sapiens, UniProt P16233); enzyme activity, inhibitor, fluorescence; 50 µM).
